Results of several laboratories.
Parts stem from different laboratories: compare values within a part only. Substitutions count along the parent as printed.

Block 1
Target: CCNB3, cyclin fold, Cln2 fusion (human)
Method: yeast growth competition, sequencing
Medium: yeast
Notes: weak parent motif
Relative to: not given
Reading: higher = stronger binding
Starting sequence: CDC6 docking peptide (human); TLKGRRLVFDNQL; partner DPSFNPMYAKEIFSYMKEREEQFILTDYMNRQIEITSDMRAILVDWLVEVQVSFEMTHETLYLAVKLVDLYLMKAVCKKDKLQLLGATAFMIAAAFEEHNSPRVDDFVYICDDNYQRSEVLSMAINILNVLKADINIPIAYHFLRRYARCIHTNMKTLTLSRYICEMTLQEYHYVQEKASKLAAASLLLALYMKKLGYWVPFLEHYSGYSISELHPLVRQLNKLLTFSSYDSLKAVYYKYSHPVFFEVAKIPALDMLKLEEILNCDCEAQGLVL
`L7I`: “normalised enrichment score” 0.182.
`R6H`: “normalised enrichment score” 0.0105.
For `V8W`, “normalised enrichment score” read 0.273.
`D10V` — result for “normalised enrichment score”: -0.426.
For `K3A`, “normalised enrichment score” read 0.379.

Block 2
Target: ABI1, truncated, D143A, DHFR fusion (Arabidopsis thaliana)
Method: DHFR PCA, deep sequencing
Medium: yeast
Notes: methotrexate growth selection, single substitutions
Together with: (+)-ABA 17 µM
Relative to: wild-type fitted maximum
Reading: higher = stronger binding
Starting sequence: PYL1, truncated, DHFR fusion (Arabidopsis thaliana); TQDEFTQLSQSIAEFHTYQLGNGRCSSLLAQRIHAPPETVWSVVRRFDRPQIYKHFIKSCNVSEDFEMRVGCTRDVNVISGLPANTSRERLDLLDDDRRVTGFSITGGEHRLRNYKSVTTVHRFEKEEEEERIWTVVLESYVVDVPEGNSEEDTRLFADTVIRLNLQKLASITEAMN; partner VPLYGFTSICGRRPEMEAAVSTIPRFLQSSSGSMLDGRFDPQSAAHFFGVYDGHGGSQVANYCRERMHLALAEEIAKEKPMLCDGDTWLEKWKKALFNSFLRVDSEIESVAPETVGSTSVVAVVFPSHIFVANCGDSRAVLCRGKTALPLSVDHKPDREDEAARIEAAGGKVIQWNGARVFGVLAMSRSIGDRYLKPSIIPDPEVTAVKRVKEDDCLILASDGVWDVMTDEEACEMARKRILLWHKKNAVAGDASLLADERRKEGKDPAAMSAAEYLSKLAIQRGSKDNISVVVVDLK
Under “relative binding score”, `S42N` is recorded as 86.1%.
`R88S` — result for “relative binding score”: 77.3%.
For `Q7E`, “relative binding score” read 83.2%.
Under “relative binding score”, `G102A` is recorded as 68.2%.
Under “relative binding score”, `T39K` is recorded as 82.5%.

Block 3
Target: Histone acetyltransferase KAT6A, both winged helices, GST fusion (KAT6A, Homo sapiens, UniProt Q92794, residues 1-181)
Method: protein binding microarray
Form: double-stranded DNA, one strand shown
Medium: in vitro
Tested at: not given
Notes: 8-mer, flanks averaged, mean of 2 arrays, mostly near background
Relative to: not given
Reading: higher = stronger binding
Residues (chain): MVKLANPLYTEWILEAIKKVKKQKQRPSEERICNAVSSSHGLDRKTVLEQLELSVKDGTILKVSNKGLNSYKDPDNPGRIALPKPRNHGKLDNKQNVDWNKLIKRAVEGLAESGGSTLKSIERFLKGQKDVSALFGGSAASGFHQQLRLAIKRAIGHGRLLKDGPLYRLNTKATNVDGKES
`AGCCAGCT` gave an E-score of -0.281.
With `AGTGCAAT` the E-score was -0.137.
The E-score of `CCCGGCCC` is reported as 0.0916.
The E-score of `CTCCAGAG` is reported as -0.0778.
`ACCCGGTC` gave an E-score of 0.209.

Other studies, line by line
`PhoQ, residues 284 288 289 292 302 303 SLSLLA` has a fold induction of 48 (PhoP, residues 12 14 15 18 19 IQSYL (Escherichia coli, UniProt P23836); Sort-seq, measured: YFP reporter; E. coli; PhoQ-PhoP variant library, together with: 10 µM Mg2+; relative to: high Mg2+ state, higher = stronger signaling).

A few entries again (block 3):
`AGCCAGCT` gave an E-score of -0.281.
With `AGTGCAAT` the E-score was -0.137.
